# Results pooled from the literature.
# A part holds a random share of what one study measured.
# Chain of UniProt Q15208 (whole entry, looked up): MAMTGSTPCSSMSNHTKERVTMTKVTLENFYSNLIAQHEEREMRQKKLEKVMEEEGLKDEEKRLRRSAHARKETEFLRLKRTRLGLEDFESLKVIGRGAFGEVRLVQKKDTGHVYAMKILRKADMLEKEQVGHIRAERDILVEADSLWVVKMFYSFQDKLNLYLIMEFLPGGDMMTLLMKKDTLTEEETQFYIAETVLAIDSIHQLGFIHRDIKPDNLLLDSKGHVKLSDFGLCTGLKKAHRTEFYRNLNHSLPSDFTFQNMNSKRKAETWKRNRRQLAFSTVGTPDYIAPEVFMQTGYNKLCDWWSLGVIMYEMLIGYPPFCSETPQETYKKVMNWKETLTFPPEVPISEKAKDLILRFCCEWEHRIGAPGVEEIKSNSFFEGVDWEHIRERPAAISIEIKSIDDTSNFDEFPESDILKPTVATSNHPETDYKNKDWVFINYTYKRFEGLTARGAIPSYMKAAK
# Chain of UniProt Q8NE63 (whole entry, looked up): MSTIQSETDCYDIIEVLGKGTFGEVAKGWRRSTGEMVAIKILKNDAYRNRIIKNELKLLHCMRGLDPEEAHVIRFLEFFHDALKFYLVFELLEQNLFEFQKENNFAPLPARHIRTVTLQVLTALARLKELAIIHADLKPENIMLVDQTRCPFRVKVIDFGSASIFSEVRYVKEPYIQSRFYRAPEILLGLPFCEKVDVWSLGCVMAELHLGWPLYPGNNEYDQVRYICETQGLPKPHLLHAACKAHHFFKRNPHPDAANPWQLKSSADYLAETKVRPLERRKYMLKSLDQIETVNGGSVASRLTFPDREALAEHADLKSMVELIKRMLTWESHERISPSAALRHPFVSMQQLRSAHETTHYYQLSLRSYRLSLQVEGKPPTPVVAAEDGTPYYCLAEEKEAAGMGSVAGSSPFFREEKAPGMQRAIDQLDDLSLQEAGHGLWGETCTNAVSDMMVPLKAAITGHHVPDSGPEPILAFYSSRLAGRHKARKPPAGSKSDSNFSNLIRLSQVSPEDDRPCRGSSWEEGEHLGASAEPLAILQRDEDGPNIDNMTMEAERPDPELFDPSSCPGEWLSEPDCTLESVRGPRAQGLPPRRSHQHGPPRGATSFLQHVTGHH
# Chain of UniProt P29376 (whole entry, looked up): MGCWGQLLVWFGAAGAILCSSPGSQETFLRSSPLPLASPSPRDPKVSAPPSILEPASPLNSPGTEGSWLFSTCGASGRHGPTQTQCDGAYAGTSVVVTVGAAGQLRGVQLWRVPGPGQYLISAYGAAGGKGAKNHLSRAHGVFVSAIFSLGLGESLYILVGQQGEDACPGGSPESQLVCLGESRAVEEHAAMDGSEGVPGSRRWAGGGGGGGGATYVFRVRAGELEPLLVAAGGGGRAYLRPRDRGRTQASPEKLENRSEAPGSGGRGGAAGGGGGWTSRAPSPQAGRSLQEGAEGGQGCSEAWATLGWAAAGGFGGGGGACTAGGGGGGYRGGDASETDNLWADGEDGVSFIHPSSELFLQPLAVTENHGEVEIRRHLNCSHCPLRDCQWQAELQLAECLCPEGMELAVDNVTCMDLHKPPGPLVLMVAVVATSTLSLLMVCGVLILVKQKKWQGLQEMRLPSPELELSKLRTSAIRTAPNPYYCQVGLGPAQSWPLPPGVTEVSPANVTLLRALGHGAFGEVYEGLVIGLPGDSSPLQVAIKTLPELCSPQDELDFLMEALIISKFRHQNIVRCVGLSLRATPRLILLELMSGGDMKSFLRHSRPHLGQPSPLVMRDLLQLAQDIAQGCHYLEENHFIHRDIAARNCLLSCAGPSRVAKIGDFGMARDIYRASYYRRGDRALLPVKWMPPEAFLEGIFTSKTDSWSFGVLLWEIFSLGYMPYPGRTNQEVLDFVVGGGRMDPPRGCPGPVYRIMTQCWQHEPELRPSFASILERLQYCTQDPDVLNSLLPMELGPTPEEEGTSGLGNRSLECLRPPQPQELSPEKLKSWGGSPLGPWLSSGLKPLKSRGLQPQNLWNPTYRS
# Chain of UniProt P42336 (whole entry, unmodified, looked up): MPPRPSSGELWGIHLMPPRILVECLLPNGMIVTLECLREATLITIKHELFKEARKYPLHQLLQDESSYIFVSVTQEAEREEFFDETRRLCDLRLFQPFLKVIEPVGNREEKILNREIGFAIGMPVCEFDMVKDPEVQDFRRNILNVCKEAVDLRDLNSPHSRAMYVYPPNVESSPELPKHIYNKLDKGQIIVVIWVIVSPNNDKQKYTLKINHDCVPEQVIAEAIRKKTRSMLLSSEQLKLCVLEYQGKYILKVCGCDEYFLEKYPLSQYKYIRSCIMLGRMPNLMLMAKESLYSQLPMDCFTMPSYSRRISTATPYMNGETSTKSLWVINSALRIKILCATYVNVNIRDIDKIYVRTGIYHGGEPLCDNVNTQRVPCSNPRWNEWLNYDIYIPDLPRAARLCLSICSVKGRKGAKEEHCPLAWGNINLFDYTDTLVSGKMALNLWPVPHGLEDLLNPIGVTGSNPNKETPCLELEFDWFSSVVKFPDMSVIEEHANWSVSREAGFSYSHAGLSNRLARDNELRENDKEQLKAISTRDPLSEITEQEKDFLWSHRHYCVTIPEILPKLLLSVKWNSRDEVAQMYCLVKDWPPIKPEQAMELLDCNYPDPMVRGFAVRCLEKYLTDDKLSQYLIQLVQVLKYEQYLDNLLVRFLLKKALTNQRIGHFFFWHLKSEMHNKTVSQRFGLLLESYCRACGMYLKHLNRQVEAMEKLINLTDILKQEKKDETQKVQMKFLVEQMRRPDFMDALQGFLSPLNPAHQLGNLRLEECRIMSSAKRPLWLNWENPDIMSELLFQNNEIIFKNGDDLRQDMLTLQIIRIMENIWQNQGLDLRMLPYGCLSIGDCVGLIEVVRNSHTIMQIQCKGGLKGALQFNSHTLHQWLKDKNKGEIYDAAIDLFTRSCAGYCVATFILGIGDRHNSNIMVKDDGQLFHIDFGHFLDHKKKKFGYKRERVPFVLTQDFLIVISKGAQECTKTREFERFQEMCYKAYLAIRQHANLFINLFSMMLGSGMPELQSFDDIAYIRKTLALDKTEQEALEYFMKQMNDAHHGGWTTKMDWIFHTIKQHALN
# Chain of UniProt Q00536 (whole entry, looked up): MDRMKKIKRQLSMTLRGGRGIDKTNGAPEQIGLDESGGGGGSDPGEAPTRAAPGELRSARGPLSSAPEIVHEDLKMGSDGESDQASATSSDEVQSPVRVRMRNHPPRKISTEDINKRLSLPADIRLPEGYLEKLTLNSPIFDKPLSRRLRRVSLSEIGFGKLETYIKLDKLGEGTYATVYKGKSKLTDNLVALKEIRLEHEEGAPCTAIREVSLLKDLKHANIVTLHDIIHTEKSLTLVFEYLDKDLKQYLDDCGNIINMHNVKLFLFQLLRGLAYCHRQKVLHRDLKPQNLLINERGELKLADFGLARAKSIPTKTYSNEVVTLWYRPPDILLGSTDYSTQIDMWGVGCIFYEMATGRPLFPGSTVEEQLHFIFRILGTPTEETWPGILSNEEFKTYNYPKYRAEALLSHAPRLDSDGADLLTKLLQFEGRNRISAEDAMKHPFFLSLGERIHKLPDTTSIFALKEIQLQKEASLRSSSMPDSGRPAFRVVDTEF
# Chain of UniProt P49336 (whole entry, looked up): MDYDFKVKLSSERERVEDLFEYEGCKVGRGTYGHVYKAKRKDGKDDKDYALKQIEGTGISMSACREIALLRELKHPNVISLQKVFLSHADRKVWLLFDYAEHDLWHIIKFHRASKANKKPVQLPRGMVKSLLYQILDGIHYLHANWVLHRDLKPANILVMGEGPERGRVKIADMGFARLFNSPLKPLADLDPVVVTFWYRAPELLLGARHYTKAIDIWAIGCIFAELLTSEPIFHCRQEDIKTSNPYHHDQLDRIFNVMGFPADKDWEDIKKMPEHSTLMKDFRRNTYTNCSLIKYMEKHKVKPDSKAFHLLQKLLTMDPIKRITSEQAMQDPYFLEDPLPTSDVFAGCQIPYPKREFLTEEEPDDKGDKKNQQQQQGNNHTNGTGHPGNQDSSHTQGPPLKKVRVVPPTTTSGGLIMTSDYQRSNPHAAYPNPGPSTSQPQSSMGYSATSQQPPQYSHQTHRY
# Chain of UniProt P15735 (whole entry, looked up): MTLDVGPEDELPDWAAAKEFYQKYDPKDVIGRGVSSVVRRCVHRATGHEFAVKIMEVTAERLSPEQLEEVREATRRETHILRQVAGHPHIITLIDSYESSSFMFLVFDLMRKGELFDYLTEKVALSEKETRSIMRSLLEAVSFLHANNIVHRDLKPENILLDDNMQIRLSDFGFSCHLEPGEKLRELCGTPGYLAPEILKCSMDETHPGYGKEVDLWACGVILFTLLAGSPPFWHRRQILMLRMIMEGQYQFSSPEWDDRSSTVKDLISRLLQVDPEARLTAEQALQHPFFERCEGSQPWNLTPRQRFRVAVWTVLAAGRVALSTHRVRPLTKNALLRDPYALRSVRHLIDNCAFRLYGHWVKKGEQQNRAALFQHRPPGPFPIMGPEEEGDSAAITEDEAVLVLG

# Set 1 — read-out: cell-free assay; method: competition with immobilised ligand; tested at: 1 µM
# Structure (SMILES): N#CC1(c2ccccn2)CCN(Cc2cc(C(=O)O)c(=O)n3ccccc23)CC1
target,remaining binding
"Tyrosine-protein kinase JAK1, JH1 (JAK1, Homo sapiens, UniProt P23458)",100%
"Receptor-type tyrosine-protein kinase FLT3 (FLT3, Homo sapiens, UniProt P36888)",85%
"Homeodomain-interacting protein kinase 4 (HIPK4, Homo sapiens, UniProt Q8NE63)",95%
"Ribosomal protein S6 kinase alpha-3, N-terminal kinase domain (RPS6KA3, Homo sapiens, UniProt P51812)",81%
"Serine/threonine-protein kinase NIM1 (NIM1K, Homo sapiens, UniProt Q8IY84)",69%
"Activated CDC42 kinase 1 (TNK2, Homo sapiens, UniProt Q07912)",99%
"Aurora kinase A (AURKA, Homo sapiens, UniProt O14965)",100%
"Mast/stem cell growth factor receptor Kit, autoinhibited (KIT, Homo sapiens, UniProt P10721)",87%
"Leukocyte tyrosine kinase receptor (LTK, Homo sapiens, UniProt P29376)",100%
"Tyrosine-protein kinase ABL1, non-phosphorylated (ABL1, Homo sapiens, UniProt P00519, Q252H)",89%
"Hormonally up-regulated neu tumor-associated kinase (HUNK, Homo sapiens, UniProt P57058)",100%
"Tyrosine-protein kinase ABL1, non-phosphorylated (ABL1, Homo sapiens, UniProt P00519, F317L)",57%
"Serine/threonine-protein kinase 38 (STK38, Homo sapiens, UniProt Q15208)",93%
"Cyclin-dependent kinase 16 (CDK16, Homo sapiens, UniProt Q00536)",67%
"Mitogen-activated protein kinase 11 (MAPK11, Homo sapiens, UniProt Q15759)",100%
"Receptor-type tyrosine-protein kinase FLT3 (FLT3, Homo sapiens, UniProt P36888, ITD)",92%
"Serine/threonine-protein kinase PAK 6 (PAK6, Homo sapiens, UniProt Q9NQU5)",100%
"Macrophage colony-stimulating factor 1 receptor, autoinhibited (CSF1R, Homo sapiens, UniProt P07333)",100%
"Proto-oncogene tyrosine-protein kinase Src (SRC, Homo sapiens, UniProt P12931)",100%
"Phosphorylase b kinase gamma catalytic chain, liver/testis isoform (PHKG2, Homo sapiens, UniProt P15735)",100%
"Mitogen-activated protein kinase kinase kinase 19 (MAP3K19, Homo sapiens, UniProt Q56UN5)",77%
"Cyclin-dependent kinase 8 (CDK8, Homo sapiens, UniProt P49336)",100%
"Cyclin-dependent kinase 4, with cyclin D1 (CDK4, Homo sapiens, UniProt P11802)",100%
"Receptor-type tyrosine-protein kinase FLT3 (FLT3, Homo sapiens, UniProt P36888, D835V)",100%
"Phosphatidylinositol 4,5-bisphosphate 3-kinase catalytic subunit alpha isoform (PIK3CA, Homo sapiens, UniProt P42336, E545A)",100%

# Set 2 — action: inhibitor; tested at: 10 µM; relative to: control
# Target: Diamine acetyltransferase 1 (Homo sapiens, UniProt P21673)
# Residues (P21673 1-171): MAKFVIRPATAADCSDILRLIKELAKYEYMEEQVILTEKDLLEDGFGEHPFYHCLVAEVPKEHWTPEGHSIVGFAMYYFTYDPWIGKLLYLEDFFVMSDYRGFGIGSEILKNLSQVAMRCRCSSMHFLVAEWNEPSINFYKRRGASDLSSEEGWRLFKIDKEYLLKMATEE
Structure (SMILES),remaining activity
COc1cc2c3c(c1OC)-c1ccccc1C[C@H]3N(C)CC2,110%
CC(C)=CCC/C(C)=C/CC/C(C)=C/CC[C@]1(C)CCc2cc(O)c(C)c(C)c2O1,104%
O=c1ccc2cc(O[C@@H]3O[C@H](CO)[C@@H](O)[C@H](O)[C@H]3O)c(O)cc2o1,85.7%

# Set 3 — read-out: enzyme activity; action: inhibitor; tested at: 10 µM
# Target: Calcium/calmodulin-dependent protein kinase type II subunit alpha (CAMK2A, Homo sapiens, UniProt Q9UQM7)
# Chain of UniProt Q9UQM7 (whole entry, looked up): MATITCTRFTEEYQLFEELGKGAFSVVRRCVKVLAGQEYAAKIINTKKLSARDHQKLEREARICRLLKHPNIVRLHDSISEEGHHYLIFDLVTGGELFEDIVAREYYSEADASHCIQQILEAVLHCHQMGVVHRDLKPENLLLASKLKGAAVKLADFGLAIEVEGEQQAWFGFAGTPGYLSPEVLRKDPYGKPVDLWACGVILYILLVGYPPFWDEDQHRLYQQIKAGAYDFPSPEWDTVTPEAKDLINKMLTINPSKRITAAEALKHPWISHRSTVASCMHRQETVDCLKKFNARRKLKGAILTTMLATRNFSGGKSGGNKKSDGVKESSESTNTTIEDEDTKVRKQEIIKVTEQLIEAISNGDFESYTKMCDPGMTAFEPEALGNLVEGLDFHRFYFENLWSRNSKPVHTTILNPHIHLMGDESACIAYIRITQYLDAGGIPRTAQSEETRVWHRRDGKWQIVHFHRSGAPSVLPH
Structure (SMILES),inhibition [%]
CCCCC/C=C/C/C=C/CCCCCCCC(=O)O[C@H](COC(=O)CCCCCCCCCCCCCCC)COP(=O)([O-])OCC[N+](C)(C)C,13
CN(C)C(=O)Oc1cc(OC(=O)N(C)C)cc(C(O)CNC(C)(C)C)c1 (stereo not shown),-5
COc1ccc(C=O)cc1,50
C[C@@H]1CC[C@@]2(OC1)O[C@H]1[C@@H](O)[C@H]3[C@@H]4CC[C@H]5C[C@@H](O[C@@H]6O[C@H](CO)[C@H](O[C@@H]7O[C@H](CO)[C@@H](O)[C@H](O[C@@H]8OC[C@@H](O)[C@H](O)[C@H]8O)[C@H]7O[C@@H]7O[C@H](CO)[C@H](O)[C@H](O[C@@H]8O[C@H](CO)[C@@H](O)[C@H](O)[C@H]8O)[C@H]7O)[C@H](O)[C@H]6O)[C@H](O)C[C@]5(C)[C@H]4CC[C@]3(C)[C@H]1[C@@H]2C,-25
C[C@]12CC[C@H]3[C@@H](CC[C@@H]4C[C@@H](O)CC[C@@]43CO)[C@@]1(O)CC[C@@H]2c1ccc(=O)oc1,-87

# Set 4 — cell line: HEK-293T/ACE2; tested at: 10 µM; time: 16 h; relative to: vehicle
Structure (SMILES),viability [%]
COc1ncnc(NS(=O)(=O)c2ccc(N)cc2)c1OC,99.9
N=C(N)NC(=O)Cc1c(Cl)cccc1Cl,96.9
COc1ccc(C(=O)CC(=O)c2ccc(C(C)(C)C)cc2)cc1,101
CCN(CC)C(=O)N1CCN(C)CC1,101
C[N+]12CCC(CC1)C(OC(=O)C(O)(c1ccccc1)c1ccccc1)C2 (stereo not shown),105
CC(C)N1CCN(c2ccc(OCC3COC(Cn4cncn4)(c4ccc(Cl)cc4Cl)O3)cc2)CC1 (stereo not shown),91.6
O=C(O)Cc1ccccc1Nc1c(Cl)cccc1Cl,103
Cc1nc(-c2ccc(OCC(C)C)c(C#N)c2)sc1C(=O)O,104
CCN(CC)C(=O)/C(C#N)=C/c1cc(O)c(O)c([N+](=O)[O-])c1,101
COc1cnc(NS(=O)(=O)c2ccc(N)cc2)nc1,104
CC(C)c1nc(CN(C)C(=O)N[C@H](C(=O)N[C@@H](Cc2ccccc2)C[C@H](O)[C@H](Cc2ccccc2)NC(=O)OCc2cncs2)C(C)C)cs1,103
O=c1[nH]c(=O)n([C@H]2C[C@H](O)[C@@H](CO)O2)cc1C(F)(F)F,75.1
Cc1cn([C@H]2C=C[C@@H](CO)O2)c(=O)[nH]c1=O,98.3
NC12CC3CC(CC(C3)C1)C2,95.1
CCC1(C)CC(=O)NC1=O (stereo not shown),97.3

# Single results of other studies — cell line: HaCaT; tested at: 100 µM
Compound,time,viability [%]
COC[C@@H](NC(C)=O)C(=O)NCc1ccccc1,60 h,150
CN(C(=O)/C=C/c1ccoc1)[C@@H]1CC[C@@]2(O)[C@H]3Cc4ccc(O)c5c4[C@@]2(CCN3CC2CC2)[C@H]1O5,36 h,69.4
NCC1(CC(=O)O)CCCCC1,36 h,98.8
NCC(CC(=O)O)c1ccc(Cl)cc1 (stereo not shown),60 h,118

# For quick reference, copied from above (set 3):
Structure (SMILES),inhibition [%]
CCCCC/C=C/C/C=C/CCCCCCCC(=O)O[C@H](COC(=O)CCCCCCCCCCCCCCC)COP(=O)([O-])OCC[N+](C)(C)C,13
CN(C)C(=O)Oc1cc(OC(=O)N(C)C)cc(C(O)CNC(C)(C)C)c1 (stereo not shown),-5
COc1ccc(C=O)cc1,50
C[C@@H]1CC[C@@]2(OC1)O[C@H]1[C@@H](O)[C@H]3[C@@H]4CC[C@H]5C[C@@H](O[C@@H]6O[C@H](CO)[C@H](O[C@@H]7O[C@H](CO)[C@@H](O)[C@H](O[C@@H]8OC[C@@H](O)[C@H](O)[C@H]8O)[C@H]7O[C@@H]7O[C@H](CO)[C@H](O)[C@H](O[C@@H]8O[C@H](CO)[C@@H](O)[C@H](O)[C@H]8O)[C@H]7O)[C@H](O)[C@H]6O)[C@H](O)C[C@]5(C)[C@H]4CC[C@]3(C)[C@H]1[C@@H]2C,-25
C[C@]12CC[C@H]3[C@@H](CC[C@@H]4C[C@@H](O)CC[C@@]43CO)[C@@]1(O)CC[C@@H]2c1ccc(=O)oc1,-87
